# Assay results from different studies.
# Several values in a cell are separate wells, animals, samples, runs or records. Numbers after ± are the reported error.
# DRD4: D(4) dopamine receptor (DRD4, Homo sapiens, UniProt P21917)
# Chain of UniProt P21917 (whole entry, looked up): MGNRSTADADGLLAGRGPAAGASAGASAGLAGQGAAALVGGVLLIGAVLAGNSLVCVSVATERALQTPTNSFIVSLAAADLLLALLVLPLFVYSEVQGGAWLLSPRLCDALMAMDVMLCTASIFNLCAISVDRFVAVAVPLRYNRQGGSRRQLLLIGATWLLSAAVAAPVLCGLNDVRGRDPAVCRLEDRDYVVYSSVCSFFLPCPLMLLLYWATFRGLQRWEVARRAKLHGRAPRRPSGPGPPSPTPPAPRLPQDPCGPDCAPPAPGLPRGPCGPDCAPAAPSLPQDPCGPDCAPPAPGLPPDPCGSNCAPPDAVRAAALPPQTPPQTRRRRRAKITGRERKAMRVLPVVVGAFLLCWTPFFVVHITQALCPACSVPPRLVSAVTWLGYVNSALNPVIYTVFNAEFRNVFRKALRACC
# Chain of UniProt Q14790 (whole entry, looked up): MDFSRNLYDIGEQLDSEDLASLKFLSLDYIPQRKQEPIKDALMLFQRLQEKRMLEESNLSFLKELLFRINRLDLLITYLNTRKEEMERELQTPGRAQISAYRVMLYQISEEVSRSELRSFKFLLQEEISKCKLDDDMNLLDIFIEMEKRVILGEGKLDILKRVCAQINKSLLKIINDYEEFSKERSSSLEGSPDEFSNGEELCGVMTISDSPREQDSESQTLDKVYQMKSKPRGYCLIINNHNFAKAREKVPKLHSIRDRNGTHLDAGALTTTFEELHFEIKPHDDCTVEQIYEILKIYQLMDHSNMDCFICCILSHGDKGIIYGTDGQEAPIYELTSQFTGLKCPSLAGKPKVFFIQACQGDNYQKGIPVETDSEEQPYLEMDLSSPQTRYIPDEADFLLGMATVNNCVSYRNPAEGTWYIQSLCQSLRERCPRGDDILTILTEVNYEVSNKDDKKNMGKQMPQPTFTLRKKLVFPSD
# Chain of UniProt Q92851 (whole entry, looked up): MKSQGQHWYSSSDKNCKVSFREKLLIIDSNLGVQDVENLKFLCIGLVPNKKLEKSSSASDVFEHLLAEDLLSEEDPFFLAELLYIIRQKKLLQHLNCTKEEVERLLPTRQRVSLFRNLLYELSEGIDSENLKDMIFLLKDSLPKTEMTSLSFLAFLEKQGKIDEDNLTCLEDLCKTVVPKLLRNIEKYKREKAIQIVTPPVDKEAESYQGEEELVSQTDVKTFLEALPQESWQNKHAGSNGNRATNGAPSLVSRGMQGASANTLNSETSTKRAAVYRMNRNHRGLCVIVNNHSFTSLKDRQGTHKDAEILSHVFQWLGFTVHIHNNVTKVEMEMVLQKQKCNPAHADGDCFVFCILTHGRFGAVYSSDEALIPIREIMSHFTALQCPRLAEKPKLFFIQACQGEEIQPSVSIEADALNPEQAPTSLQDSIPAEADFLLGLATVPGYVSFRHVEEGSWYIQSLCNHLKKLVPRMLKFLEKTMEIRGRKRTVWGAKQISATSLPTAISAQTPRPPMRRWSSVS
SMILES,tested on,assay,system,setting,scale,endpoint,result
Nc1ncc(-c2cc(-c3cnn(CC(F)(F)F)c3)ncc2F)nc1C(=O)NC1CNCC(F)C1 (centres unmarked),CAMK1,KINOMEscan,,1 µM,baseline: DMSO control,remaining binding,81%
CC(=O)N[C@@H](Cc1ccccc1Cl)C(=O)N[C@@H](CCC(=O)O)C(=O)N[C@@H](C)C(=O)N[C@@H](CC(=O)O)C(=O)COC(=O)c1c(C)cccc1C,"Caspase-10 (CASP10, Homo sapiens, UniProt Q92851)","enzyme activity, inhibitor",,,,kinact/KI,374000 M⁻¹ s⁻¹
c1ccc(-c2n[nH]cc2-c2ccnc3ccccc23)nc1,RIM15 (Candida albicans),"kinase binding, MIB/MS competition",Candida albicans lysate,10 µM,baseline: DMSO,log2 fold change,-0.1
CC(C)c1ccc(N(C)c2ccc3c(c2)OCC[C@H]3CNc2cnccc2C(=O)O)cc1,A2058,"cell viability, CellTiter-Glo",,7 days,,IC50,46.8 nM
C[C@@H](O)[C@@H]1NC(=O)[C@H](CCCCN)NC(=O)[C@@H](Cc2c[nH]c3ccccc23)NC(=O)[C@H](Cc2ccc(O)cc2)NC(=O)[C@@H](NC(=O)[C@@H](Cc2ccccc2)NC(=O)CN2CCN(CC(=O)O)CCN(CC(=O)O)CCN(CC(=O)O)CC2)CSSC[C@@H](C(=O)N[C@H](CO)[C@@H](C)O)NC1=O [gallium-67 labelled],,gamma counting,"ICR mice, male, spleen","iv, 11 kBq/mouse, 1 h",,tissue uptake,1.93 ± 0.54 %ID/g
CCN(C(=O)c1cc(F)ccc1Oc1nncnc1N1CCC2(C1)CN([C@H](CCCN(C)CCOC)C(C)C)C2)C(C)C,RD-ES,cell growth or viability,,7 days,,GI50,> 10000 nM
CCCC[C@H](NC(=O)CCCCCCCNC(=O)CN1CCN(CC(=O)O)CCN(CC(=O)O)CC1)C(=O)N[C@H]1CC(=O)NCCCC[C@@H](C(N)=O)NC(=O)[C@H](Cc2c[nH]c3ccccc23)NC(=O)[C@H](CCCNC(=N)N)NC(=O)[C@@H](Cc2ccccc2)NC(=O)[C@H](Cc2c[nH]cn2)NC1=O [technetium-99m labelled],,,"C57 mouse, spleen","intravenous, 0.037 MBq, 4 h",,tissue uptake,0.01 ± 0.07 %ID/g
COc1ccc(N2CCN(CC(O)COc3ccc4ccccc4c3)CC2)cc1 (centres unmarked),,,"zebrafish larvae, 7 dpf","10 µM, minute 6",,larval motion,12.7 ± 1.9 pixels/frame
CN(C)C(=O)c1ccnc(N2Cc3cn(Cc4ccc(F)cc4F)nc3C2)n1,,,"mouse, hippocampal slice, Schaffer collaterals","dose not given, interstimulus interval 400",baseline: second over first response,paired-pulse ratio,1.31 and 1.16 and 1.12 and 1.21 and 1.11 and 1.17 and 1.15 and 1.18
CCOC(=O)C1CCN(CCC(=O)Nc2ccccc2F)CC1,,,"zebrafish larvae, 7 dpf","10 µM, minute 6",,larval motion,0.5 ± 0.4 pixels/frame
CC(=O)[O-].O.[Cu+2].[O-]c1ccc(Br)cc1C=NCCN1CCOCC1,,DPPH radical scavenging,,80 µM,,inhibition,31.9%
CC(=O)N[C@@H](Cc1ccc(N)cc1)C(=O)N[C@@H](CCCC(=O)O)C(=O)N[C@@H](CC1CCCCC1)C(=O)N[C@@H](CC(=O)O)C(=O)COC(=O)c1c(C)cccc1C,"Caspase-8 (CASP8, Homo sapiens, UniProt Q14790)","enzyme activity, inhibitor",,,,kinact/KI,374000 M⁻¹ s⁻¹
Cn1ncc2cc(-c3cncc(Cl)c3N3CCC4(CCNC4=O)CC3)ccc21,LS174T,"gene expression, microarray, item: PCK1 mRNA",,"concentration not given, 24 h",baseline: untreated cells,log2 fold change,8.08
Cn1ncc2cc(CN3CCC(F)(F)C(COc4ccc(C#N)c(F)c4)C3)ccc21 (centres unmarked),DRD4,"ligand displacement, radioligand",,,,Ki,3.8 nM
Cc1cc(OCCOCCN(C)C)cc(C(C)C)c1,,,"zebrafish larvae, 7 dpf","10 µM, minute 2",,larval motion,16.2 ± 1.3 pixels/frame
CNS(=O)(=O)Nc1nccc(Cc2c(C)c3ccc(Oc4ncccc4F)cc3oc2=O)c1F,U-251 MG,"cell viability, inhibitor, CellTiter-Glo",,7 days,,IC50,> 1000 nM
C=CC(=O)Nc1cccc(Cn2ncc3cnc(Nc4cnn(CCOC)c4)nc32)c1,ASK2 human,"binding, KINOMEscan",,100 nM,lower = stronger binding,percent of control,92%
Cn1ncc2cc(CN3CCC(F)(F)C(COc4ccc(C#N)cc4)C3)ccc21 (centres unmarked),DRD4,"ligand displacement, radioligand",,cell membranes,,Ki,8.9 nM
COCCNCCOc1cc(C)cc(C(C)C)c1,,,"zebrafish larvae, 7 dpf","10 µM, minute 6",,larval motion,15.2 ± 1.5 pixels/frame
CCN(CC)CC(=O)Nc1cccc(-n2cc(-c3ccc4ccc(-c5cn(-c6cccc(NC(=O)CN(CC)CC)c6)nn5)cc4c3)nn2)c1,RCC4,"PCR angiogenesis array, item: VEGFA",,"5 x IC50, 6 h, normoxia",baseline: untreated,fold regulation,-1.51 fold
COC1CN([C@H]2CC[C@H]([C@@]3(C)Oc4c(Cl)cc(C(=O)NCc5c(SC)cc(C)[nH]c5=O)c(C)c4O3)CC2)C1,,"RNA-seq, item: LOXL1","human, whole blood","dose not given, 24 h",baseline: pretreatment baseline,log2 fold change,1.67
C=CC(=O)N1[C@@H](c2ccc3c(c2)OCO3)c2[nH]c3ccccc3c2C[C@H]1C(=O)N1CCN(C)CC1,CCNE1 WT-3xFLAG:CDK2 complex,"co-IP TMT proteomics, item: CDK2",HEK-293T,"20 µM, 6 h",baseline: DMSO,log2 fold change,-0.0145
CC1(C)NC(=O)N(c2ccc(F)c(C(C)(F)F)c2)C1=O,Schistosoma mansoni,,"adult, infected mice","oral, single dose",,ED50,18 mg/kg
COc1cc(O)ccc1CCC(c1ccc(O)cc1)c1cc2c(c(C)c1O)OC(c1ccc(O)cc1)CC2 (mixture of isomers),,item: TXB2,human whole blood,"30 µM, with: Escherichia coli",,amount,25400 ± 13000 pg/mL blood
Cc1cc(C(C)(C)C)ccc1OCCOCCN(C)C,,locomotor activity in dark,"zebrafish larvae, 7 dpf","10 µM, minute 1, dark phase",,larval motion,5.8 ± 0.7 pixels/frame
Cc1ncsc1-c1ccc(C(C)NC(=O)C2CC(O)CN2C(=O)C(NC(=O)CCCCCCCCCCN2CCCC(Nc3ncc(Cl)c(Nc4ccccc4S(=O)(=O)C(C)C)n3)C2)C(C)(C)C)cc1 (centres unmarked),22Rv1,"RNA-seq, item: RBM15B mRNA",,concentration not given,baseline: DMSO,log2 fold change,-1.17
C=C(NC(=O)c1csc(-c2nc3c(cc2O)-c2nc(cs2)C(=O)NC(C(C)O)C(=O)NC(=C(C)OC)c2nc(cs2)C(=O)NC2c4nc(cs4)C(=O)NC(COC(=O)c4c5c6c(cccc6n4O)COC(=O)C(OC4CC(C)(O)C(N(C)C)C(C)O4)C2OC5)c2nc-3cs2)n1)C(N)=O (centres unmarked),Streptococcus pyogenes,,10 isolates,pH 5.5,,MIC50,7.8 ng/mL
Cc1ccc(NC(=O)CCN2CCCCCC2)cc1C,,,"zebrafish larvae, 7 dpf","10 µM, minute 2",,larval motion,11.2 ± 1.3 pixels/frame
CN1CCCNC(=O)c2cccc(c2)C(=O)NCCCN(C)CCCNc2cccc3c2C(=O)c2cccc(c2C3=O)NCCC1,SAS,"RNA-seq, item: MT-ND4L mRNA",,"1 µM, 6 h",baseline: untreated cells,log2 fold change,-2.11

# Repeated from above:
SMILES,tested on,assay,system,setting,scale,endpoint,result
CNS(=O)(=O)Nc1nccc(Cc2c(C)c3ccc(Oc4ncccc4F)cc3oc2=O)c1F,U-251 MG,"cell viability, inhibitor, CellTiter-Glo",,7 days,,IC50,> 1000 nM
C=C(NC(=O)c1csc(-c2nc3c(cc2O)-c2nc(cs2)C(=O)NC(C(C)O)C(=O)NC(=C(C)OC)c2nc(cs2)C(=O)NC2c4nc(cs4)C(=O)NC(COC(=O)c4c5c6c(cccc6n4O)COC(=O)C(OC4CC(C)(O)C(N(C)C)C(C)O4)C2OC5)c2nc-3cs2)n1)C(N)=O (centres unmarked),Streptococcus pyogenes,,10 isolates,pH 5.5,,MIC50,7.8 ng/mL
Nc1ncc(-c2cc(-c3cnn(CC(F)(F)F)c3)ncc2F)nc1C(=O)NC1CNCC(F)C1 (centres unmarked),CAMK1,KINOMEscan,,1 µM,baseline: DMSO control,remaining binding,81%
Cc1cc(C(C)(C)C)ccc1OCCOCCN(C)C,,locomotor activity in dark,"zebrafish larvae, 7 dpf","10 µM, minute 1, dark phase",,larval motion,5.8 ± 0.7 pixels/frame
